{"data": "Assay results pooled from the literature", "note": "Numbers after ± are the reported error."}
{"Compound": "c1coc(-c2n[nH]cc2-c2ccnc3ccccc23)c1", "target or system": "YAK1 (Candida albicans)", "test": "kinase binding, MIB/MS competition", "test system": "Candida albicans lysate", "conditions": "10 µM", "how to read": "baseline: DMSO", "measurement": "log2 fold change", "value": -0.26}
{"Compound": "COc1cccc2c(Nc3ccc4[nH]c(C(=O)N/N=C/c5ccc(SC)cc5)cc4c3)cc(C)nc12", "target or system": "Gal4-VP16", "test": "reporter gene, Gal4-VP16 control reporter", "conditions": "3 µM", "how to read": "baseline: vehicle", "measurement": "activation", "value": "0.76 ± 0.08 fold"}
{"Compound": "[Zn+2]", "target or system": "PP2C", "test": "enzyme activity", "conditions": "concentration not given", "measurement": "activity class", "value": "inactive"}
{"Compound": "COCc1nn(Cc2ccc(Cn3ccccc3=O)cc2)cc1C(=O)NCc1cccc(OC)c1F", "target or system": "trypsin", "measurement": "IC50", "value": "> 40 µM"}
{"Compound": "OC[C@H]1O[C@@H]2O[C@H]3[C@H](O)[C@@H](O)[C@@H](O[C@H]4[C@H](O)[C@@H](O)[C@@H](O[C@H]5[C@H](O)[C@@H](O)[C@@H](O[C@H]6[C@H](O)[C@@H](O)[C@@H](O[C@H]7[C@H](O)[C@@H](O)[C@@H](O[C@H]8[C@H](O)[C@@H](O)[C@@H](O[C@H]1[C@H](O)[C@H]2O)O[C@@H]8CO)O[C@@H]7CO)O[C@@H]6CO)O[C@@H]5CO)O[C@@H]4CO)O[C@@H]3CO", "target or system": "LuxR", "test": "Escherichia coli sensor", "conditions": "40 µM", "how to read": "higher = stronger induction", "measurement": "bioluminescence induction", "value": "900 ± 55 RLU"}
{"Compound": "Cc1nn(CC(F)(F)F)cc1Nc1ncc(C2CC2)c(NCCc2c[nH]cn2)n1", "target or system": "403 human wild-type kinases", "test": "scanMAX binding", "conditions": "1 µM, hit below 10% of control", "how to read": "baseline: hits over kinases tested, direction not given", "measurement": "selectivity score S10", "value": 0.005}
{"Compound": "CN1C(C(=O)Nc2ccccn2)=C(O)c2sc(Cl)cc2S1(=O)=O", "target or system": "Gal4-VP16", "test": "reporter gene, Gal4-VP16 control reporter", "conditions": "30 µM", "how to read": "baseline: vehicle", "measurement": "activation", "value": "0.83 fold"}
{"Compound": "CSc1cc(Oc2ccnc3[nH]c(=O)cnc23)ccc1NC(=O)Nc1cc(C(C)(C)C)nn1-c1ccccc1", "target or system": "Src family kinases", "test": "reverse-phase protein array", "test system": "patient-derived cell clone A", "conditions": "1 µM, 4 h", "how to read": "baseline: DMSO", "measurement": "phospho-Src family Tyr416/total ratio", "value": 0.24}
{"Compound": "CC(Nc1nc(N2CCCC2)nc2ccccc12)c1ccccc1 (stereo not drawn)", "target or system": "transportin-1/2", "test": "FUS nuclear import, high content imaging", "test system": "HeLa Kyoto reporter", "conditions": "10.01 µM, 2 h", "measurement": "cells with nuclear reporter", "value": "96.5%"}
{"Compound": "NS(=O)(=O)c1ccc(CNc2nc(Nc3cccc(NC(=O)N4CCCC4)c3)ncc2C2CC2)cc1", "target or system": "403 human wild-type kinases", "test": "scanMAX binding", "conditions": "1 µM, hit below 10% of control", "how to read": "baseline: hits over kinases tested, direction not given", "measurement": "selectivity score S10", "value": 0.002}
{"Compound": "[Mn+2]", "target or system": "PP2C", "test": "enzyme activity", "conditions": "concentration not given", "measurement": "activity class", "value": "active"}
{"Compound": "O=c1oc2c(O)c(O)cc3c(=O)oc4c(O)c(O)cc1c4c23", "target or system": "gasdermin E (human)", "test": "inhibitor", "conditions": "100 µM, 2 h", "measurement": "inhibition", "value": "78.3%"}
{"Compound": "Cc1nn(CC(F)(F)F)cc1Nc1ncc(C2CC2)c(NCCCNC(=O)C2CCC2)n1", "target or system": "403 human wild-type kinases", "test": "scanMAX", "how to read": "PoC below 10", "measurement": "number of kinases bound", "value": 11}
{"Compound": "CCCCCCCC(=O)OC[C@H](COP(=O)(O)O[C@@H]1[C@H](O)[C@H](O)[C@@H](OP(=O)(O)O)[C@H](OP(=O)(O)O)[C@H]1O)OC(=O)CCCCCCC", "target or system": "Kv7.2/Kv7.3(EEE) mutant channel", "test": "channel activation, activator, activation curve fit", "conditions": "model 3", "measurement": "maximal open probability", "value": 0.358}
{"Compound": "NS(=O)(=O)c1ccc(CNc2nc(Nc3cccc(CN4CCOCC4)c3)ncc2Br)cc1", "target or system": "403 human wild-type kinases", "test": "scanMAX", "how to read": "PoC below 10", "measurement": "number of kinases bound", "value": 19}
{"Compound": "O=C(O)CCCOc1cccc(CNC(=O)C#Cc2cn(Cc3ccc(C(=O)O)cc3)c(=O)[nH]c2=O)c1", "target or system": "MMP-8", "test": "inhibitor, FRET", "conditions": "10 µM", "measurement": "remaining MMP-8 activity", "value": "113 ± 2%"}
{"Compound": "NS(=O)(=O)c1ccc(CNc2ccnc(Nc3cccc(NC(=O)N4CCCC4)c3)n2)cc1", "target or system": "403 human wild-type kinases", "test": "scanMAX", "how to read": "PoC below 10", "measurement": "number of kinases bound", "value": 1}
{"Compound": "CCNCc1nc2c(N)nc3ccccc3c2n1CC(C)(C)O", "target or system": "Toxoplasma gondii", "test": "parasite growth", "test system": "HFF, bradyzoite, glutamine-induced", "measurement": "EC50", "value": "30 µM"}
{"Compound": "CCC(=O)NS(=O)(=O)c1ccc(-c2c(-c3ccccc3)noc2C)cc1", "target or system": "Gal4-VP16", "test": "reporter gene, Gal4-VP16 control reporter", "conditions": "50 µM", "how to read": "baseline: vehicle", "measurement": "activation", "value": "0.73 fold"}
{"Compound": "O=C(O)/C=C/c1ccc(O)cc1", "target or system": "gasdermin E (human)", "test": "inhibitor", "conditions": "100 µM, 2 h", "measurement": "inhibition", "value": "77.1%"}
{"Compound": "Cc1nn(CC(F)(F)F)cc1Nc1nccc(NCCc2cnc[nH]2)n1", "target or system": "403 human wild-type kinases", "test": "scanMAX", "how to read": "PoC below 10", "measurement": "number of kinases bound", "value": 0}
{"Compound": "CCN(CC)CCNC(=O)c1c(C)[nH]c(/C=C2\\C(=O)Nc3ccc(F)cc32)c1C", "target or system": "CaMKII (rat)", "test": "kinase activity, inhibitor", "conditions": "0.3 µM", "measurement": "inhibition", "value": "12%"}
{"Compound": "Clc1ccc(C(c2c[nH]c3ccccc23)c2c[nH]c3ccccc23)cc1", "target or system": "Gal4-VP16", "test": "reporter gene, Gal4-VP16 control reporter", "conditions": "10 µM", "how to read": "baseline: vehicle", "measurement": "activation", "value": "1 fold"}
{"Compound": "CNC(=O)c1cc(Oc2ccc(NC(=O)Nc3ccc(Cl)c(C(F)(F)F)c3)cc2)ccn1", "target or system": "CaMKII (rat)", "test": "kinase activity, inhibitor", "conditions": "10 µM", "measurement": "inhibition", "value": "-6%"}
{"Compound": "CC(C)Cn1c(=O)n(C)c(=O)c2[nH]cnc21", "target or system": "cGMP antibody", "test": "acetylated cGMP EIA", "measurement": "EC50", "value": "> 1000 µM"}
{"Compound": "Oc1ccccc1-c1n[nH]cc1-c1ccnc2ccccc12", "target or system": "MKK2 (Candida albicans)", "test": "kinase binding, MIB/MS competition", "test system": "Candida albicans lysate", "conditions": "10 µM", "how to read": "baseline: DMSO", "measurement": "log2 fold change", "value": 0.44}
{"Compound": "Cc1nn(CC(F)(F)F)cc1Nc1nccc(NCc2ccc(S(N)(=O)=O)cc2)n1", "target or system": "403 human wild-type kinases", "test": "scanMAX binding", "conditions": "1 µM, hit below 10% of control", "how to read": "baseline: hits over kinases tested, direction not given", "measurement": "selectivity score S10", "value": 0.002}
{"Compound": "COc1cc(/C=C/Cc2ccc(O)c(OC)c2)ccc1O", "target or system": "STAT3", "test": "reporter gene, inhibitor", "test system": "NCI-H460", "measurement": "IC50", "value": "2.63 µg/mL"}
{"Compound": "NS(=O)(=O)c1ccc(CNc2nc(Nc3cccc(CN4CCOCC4)c3)ncc2C2CC2)cc1", "target or system": "403 human wild-type kinases", "test": "scanMAX binding", "conditions": "1 µM, hit below 10% of control", "how to read": "baseline: hits over kinases tested, direction not given", "measurement": "selectivity score S10", "value": 0.007}
{"Compound": "CC(=O)OC[C@H]1O[C@@H]([S-])[C@H](OC(C)=O)[C@@H](OC(C)=O)[C@@H]1OC(C)=O.CCP(CC)CC.[Au+]", "target or system": "Toxoplasma gondii", "test": "bradyzoite growth", "conditions": "pH 8.2, alkaline-induced bradyzoites", "measurement": "EC50", "value": "0.68 µM"}
{"note": "Some of these lines once more:"}
{"Compound": "CC(=O)OC[C@H]1O[C@@H]([S-])[C@H](OC(C)=O)[C@@H](OC(C)=O)[C@@H]1OC(C)=O.CCP(CC)CC.[Au+]", "target or system": "Toxoplasma gondii", "test": "bradyzoite growth", "conditions": "pH 8.2, alkaline-induced bradyzoites", "measurement": "EC50", "value": "0.68 µM"}
{"Compound": "[Mn+2]", "target or system": "PP2C", "test": "enzyme activity", "conditions": "concentration not given", "measurement": "activity class", "value": "active"}
